Assay results collected from several papers.
A part holds a random share of what one study measured. Changes are numbered by the printed parent chain.

Sample 1
Target: CCNB1, cyclin fold, Cln2 fusion (human)
Method: yeast growth competition, sequencing
Medium: yeast
Setting: strong parent motif
Baseline: not given
Direction: higher = stronger binding
Parent: PKMYT1 docking peptide (human); SFEPRNLLSLFED; partner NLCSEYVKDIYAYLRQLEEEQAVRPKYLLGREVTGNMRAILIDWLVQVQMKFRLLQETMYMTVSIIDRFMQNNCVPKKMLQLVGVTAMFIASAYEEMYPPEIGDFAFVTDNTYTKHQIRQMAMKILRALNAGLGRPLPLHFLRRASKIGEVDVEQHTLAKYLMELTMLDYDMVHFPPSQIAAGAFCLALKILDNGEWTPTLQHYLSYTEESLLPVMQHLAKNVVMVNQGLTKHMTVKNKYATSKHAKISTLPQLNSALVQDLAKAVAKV
`SFEPRNLLSNFED [L10N]`: “normalised enrichment score” 0.565.
Under “normalised enrichment score”, `SFEPRNLMSLFED [L8M]` is recorded as 1.94.
`TFEPRNLLSLFED [S1T]` — result for “normalised enrichment score”: 0.963.
Under “normalised enrichment score”, `SFEPRNLYSLFED [L8Y]` is recorded as 1.6.
Under “normalised enrichment score”, `SFEPRNLLALFED [S9A]` is recorded as 1.71.
`SFEPRNLLDLFED [S9D]` — result for “normalised enrichment score”: 1.04.
`SFEPRNLLSTFED [L10T]` — result for “normalised enrichment score”: 0.131.
Under “normalised enrichment score”, `SFEPRNLLRLFED [S9R]` is recorded as 0.985.
Under “normalised enrichment score”, `SFEPWNLLSLFED [R5W]` is recorded as 0.361.
Under “normalised enrichment score”, `SFSPRNLLSLFED [E3S]` is recorded as 0.417.
Under “normalised enrichment score”, `SFEPRHLLSLFED [N6H]` is recorded as 0.231.
For `SFEPRNLLSLQED [F11Q]`, “normalised enrichment score” read 0.373.
Under “normalised enrichment score”, `WFEPRNLLSLFED [S1W]` is recorded as 2.02.
Under “normalised enrichment score”, `SFEPRNLLSDFED [L10D]` is recorded as 1.52.
`SFEPRQLLSLFED [N6Q]` — result for “normalised enrichment score”: 0.146.
`SFEPHNLLSLFED [R5H]` — result for “normalised enrichment score”: -1.29.
Under “normalised enrichment score”, `SFEPRELLSLFED [N6E]` is recorded as 0.463.
Under “normalised enrichment score”, `SFEPRNLLSLAED [F11A]` is recorded as 0.332.

Sample 2
Target: TAR DNA-binding protein 43, full length, His tag (TARDBP, Homo sapiens, UniProt Q13148, residues 1-414)
Method: RNA Bind-n-Seq
Molecule type: RNA
Medium: in vitro
Tested at: 20 nM
Setting: 6-mer, flanks averaged, single round
Added: 150 mM LiCl
Baseline: input library
Direction: higher = stronger binding
Under “6-mer enrichment (R)”, `CUACAU` is recorded as 0.859.
Under “6-mer enrichment (R)”, `UAAUAU` is recorded as 1.04.
`AUUAUC` — result for “6-mer enrichment (R)”: 0.906.
`AGCGCA` — result for “6-mer enrichment (R)”: 0.959.
`ACAUGG`: “6-mer enrichment (R)” 0.928.
`AUCACA`: “6-mer enrichment (R)” 0.834.
`ACGGAC` — result for “6-mer enrichment (R)”: 0.946.
Under “6-mer enrichment (R)”, `AUGGUU` is recorded as 1.12.
Under “6-mer enrichment (R)”, `UAAACU` is recorded as 0.874.
`AGCUUU`: “6-mer enrichment (R)” 0.93.

Sample 3
Target: Histone acetyltransferase KAT6A, both winged helices, GST fusion (KAT6A, Homo sapiens, UniProt Q92794, residues 1-181)
Method: protein binding microarray
Molecule type: double-stranded DNA, one strand shown
Medium: in vitro
Tested at: not given
Setting: 8-mer, flanks averaged, mean of 2 arrays, mostly near background
Baseline: not given
Direction: higher = stronger binding
Construct (chain): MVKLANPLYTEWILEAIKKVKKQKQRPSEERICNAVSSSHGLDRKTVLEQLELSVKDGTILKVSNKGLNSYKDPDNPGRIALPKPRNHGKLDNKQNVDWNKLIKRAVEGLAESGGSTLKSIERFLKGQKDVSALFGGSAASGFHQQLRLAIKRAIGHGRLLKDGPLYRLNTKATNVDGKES
For `ACTCAAGC`, the E-score was -0.0821.
The E-score of `ATTGCTTA` is reported as -0.105.
`GGGGATCA` gave an E-score of -0.179.
`CAGTGAGC` has an E-score of 0.0711.
`ATGTGGGA` has an E-score of -0.125.
For `GCCAGCCC`, the E-score was -0.171.
With `GGTAAACA` the E-score was 0.0468.
With `AGCTACAA` the E-score was -0.0675.
The E-score of `CATGGAAC` is reported as -0.0722.
With `AAGTTGCA` the E-score was -0.0448.
The E-score of `GGCATCAC` is reported as 0.0813.

Sample 4
Target: NFE2L3, bZIP domain (human)
Method: DHFR protein complementation
Medium: yeast
Setting: single substitutions, most at no-binding floor
Baseline: wild-type JUN-FOS pair
Direction: higher = stronger binding
Parent: JUN, bZIP domain (human); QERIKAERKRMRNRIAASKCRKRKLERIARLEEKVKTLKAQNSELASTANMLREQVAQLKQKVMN; partner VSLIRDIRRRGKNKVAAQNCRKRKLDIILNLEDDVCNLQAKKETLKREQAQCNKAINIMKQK
With `L38W` the binding fitness was -1.5 natural log.
For `E33M`, the binding fitness was -1.5 natural log.
The binding fitness of `L52R` is reported as -1.5 natural log.
`K34L` has a binding fitness of -1.42 natural log.
With `I28C` the binding fitness was -1.43 natural log.
The binding fitness of `A57Q` is reported as -1.53 natural log.
`Q41H` gave a binding fitness of -1.35 natural log.
`L45W` gave a binding fitness of -1.58 natural log.
For `A40V`, the binding fitness was -1.28 natural log.
With `N42L` the binding fitness was -1.48 natural log.
`V35A` has a binding fitness of -1.39 natural log.
`Q41P` has a binding fitness of -1.51 natural log.
For `K36S`, the binding fitness was -1.4 natural log.
For `T37R`, the binding fitness was -1.53 natural log.
For `R53D`, the binding fitness was -1.68 natural log.

Sample 5
Target: Fragile X messenger ribonucleoprotein 1, C-terminal low-complexity region (Fmr1, Mus musculus, UniProt P35922)
Method: RNA Bind-n-Seq
Molecule type: RNA
Medium: in vitro
Tested at: 200 nM
Setting: whole 134-nt RNA, ends assumed
Added: 150 mM LiCl
Baseline: input library
Direction: higher = stronger binding
All molecules: 7-deaza-guanosine replaces G
All sequences stand within: GGGAGUUCUACAGUCCGACGAUC … UGGAAUUCUCGGGUGUCAAGG
`CAAGUCCUGUGCUACACAUCGUAUGUACCGAAUCGGGUUUGGGGUUUGGGUUUGGGAAAGUAUUAUGUUACGCCGUUCGGAUCUGCACUU` gave a log2 enrichment of -1.61.
With `CUGUGCUACACAUCGUAUGUACCGAAUCGGGUUUUUUUGGGGUUUUUUUGGGUUUUUUUGGAAAGUAUUAUGUUACGCCGUUCGGAUCUG` the log2 enrichment was 1.2.
For `AGUCCUGUGCUACACAUCGUAUGUACCGAAUCGGGGUUUGGGGAAAGGGGUUUGGGGAAAGUAUUAUGUUACGCCGUUCGGAUCUGCACU`, the log2 enrichment was -1.3.
`UCCUCAAGUCCUGUGCUACACAUCGUAUGUACCGAAUCGGCGGGGCGGCGGAAAGUAUUAUGUUACGCCGUUCGGAUCUGCACUUCCAGC` has a log2 enrichment of 0.566.
`CACAGACAACACGCUCCCACACAGACACAGAGGGAAGGGGUUGGGAUGGGGACAGGGUGCACAGCAGGGCGGGGUAGGACCCCAGCCCCU` gave a log2 enrichment of 0.571.
With `CUCAAGUCCUGUGCUACACAUCGUAUGUACCGAAUCGGAAGGAAGGGGAAGGGGAAAGUAUUAUGUUACGCCGUUCGGAUCUGCACUUCC` the log2 enrichment was -0.061.
With `UGGAAGCUCAUACGACUGUGAAAGAAGCUGAGGAUGACAACAUCUCGGUCACAAUCCAGGCUGAAGAUGCCAUCACUCUGGAUUUUGAUG` the log2 enrichment was -2.85.

Sample 6
Target: Centromere-binding protein 1, full length, N-terminal tag (CBF1, Saccharomyces cerevisiae, UniProt P17106, residues 1-351)
UniProt P17106, sequence (whole entry, looked up): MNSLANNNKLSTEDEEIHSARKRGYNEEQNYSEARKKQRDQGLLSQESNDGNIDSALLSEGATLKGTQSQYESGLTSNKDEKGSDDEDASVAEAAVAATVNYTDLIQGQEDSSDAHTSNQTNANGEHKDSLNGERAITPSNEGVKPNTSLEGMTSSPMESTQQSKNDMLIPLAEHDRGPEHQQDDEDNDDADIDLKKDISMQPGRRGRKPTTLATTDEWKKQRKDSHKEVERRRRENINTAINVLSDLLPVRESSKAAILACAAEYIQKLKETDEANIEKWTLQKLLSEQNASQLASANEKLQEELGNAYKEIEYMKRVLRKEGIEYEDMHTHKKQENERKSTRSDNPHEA
Method: protein-binding microarray
Molecule type: double-stranded DNA, one strand shown
Medium: in vitro
Tested at: 0.8 µM
Setting: whole 60-bp probe, no competitor
Direction: higher = stronger binding
All sequences stand within: … GTCTTGATTCGCTTGACGCTGCTG
With `GAAAATATATAAACAGGTGAGATAGAAAAGAAATAG` the fluorescence intensity was 600 a.u.
`CTACTGGCAAAACACCACCAAAGCCAGCCAAATTTC` gave a fluorescence intensity of 527 a.u.
`CTATTTTCATTCCGTGGTGCGTGATCTGATGAGTTC` has a fluorescence intensity of 1460 a.u.
`CTAGAAATCTTAGGACATCAGAAATGTACGTAGTTC` has a fluorescence intensity of 475 a.u.
With `CTATCTTGTTTCAGGCACGTTCATGTTAGTGTCTTC` the fluorescence intensity was 704 a.u.
`CTAAGTAAAAAAAGTCACGCAATAAGCTCTCAATTC` gave a fluorescence intensity of 849 a.u.
For `GAAATGATATATCATCACCCGGAGGCCGGTTATTAG`, the fluorescence intensity was 482 a.u.
The fluorescence intensity of `CTAGAGTTTCGAGAATTCGTGATTCAATGTTCATTC` is reported as 512 a.u.
The fluorescence intensity of `CTACTAAACCCAGCTCACGTTCCCTATTAGTGGTTC` is reported as 673 a.u.
For `TGTACGAAGCTATAATGGGTGATTATAGTAGTTAGG`, the fluorescence intensity was 529 a.u.
`CTACTTGCAAAAGGTCACATGCTTATAATCAACTTC` gave a fluorescence intensity of 5770 a.u.
With `GAAGTGCTCATCAACGTGACTATTCAGCAACTGTAG` the fluorescence intensity was 1610 a.u.
With `GAAGAAATTGATAATCACGTGATCACGGCTTTCTAG` the fluorescence intensity was 48200 a.u.

Sample 7
Target: ABI1, truncated, D143A, DHFR fusion (Arabidopsis thaliana)
Method: DHFR PCA, deep sequencing
Medium: yeast
Setting: methotrexate growth selection, single substitutions
Added: (+)-ABA 200 µM
Baseline: wild-type fitted maximum
Direction: higher = stronger binding
Parent: PYL1, truncated, DHFR fusion (Arabidopsis thaliana); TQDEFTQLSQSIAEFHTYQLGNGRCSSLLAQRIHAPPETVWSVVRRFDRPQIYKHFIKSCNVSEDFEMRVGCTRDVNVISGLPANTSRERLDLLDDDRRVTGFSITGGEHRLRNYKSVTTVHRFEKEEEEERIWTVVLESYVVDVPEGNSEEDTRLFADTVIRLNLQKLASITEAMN; partner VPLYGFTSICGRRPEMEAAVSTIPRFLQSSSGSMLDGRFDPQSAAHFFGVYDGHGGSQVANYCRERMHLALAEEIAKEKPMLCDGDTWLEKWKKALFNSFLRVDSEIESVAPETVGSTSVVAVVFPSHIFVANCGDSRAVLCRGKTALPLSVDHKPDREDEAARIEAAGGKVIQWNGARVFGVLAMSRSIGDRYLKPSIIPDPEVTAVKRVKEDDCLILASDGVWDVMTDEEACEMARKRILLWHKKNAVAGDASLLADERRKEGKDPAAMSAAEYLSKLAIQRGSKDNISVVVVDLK
Under “relative binding score”, `D65Y` is recorded as 85%.
Under “relative binding score”, `Q31W` is recorded as 69%.
For `I133P`, “relative binding score” read 116%.
`R46A`: “relative binding score” 96.9%.
For `R32Q`, “relative binding score” read 99.7%.
`D75H` — result for “relative binding score”: 101%.
`C25F` — result for “relative binding score”: 72.6%.
For `G21T`, “relative binding score” read 101%.
`G108D`: “relative binding score” 45.9%.
For `I33F`, “relative binding score” read 9.93%.
`G21F` — result for “relative binding score”: 91.7%.
For `H16I`, “relative binding score” read 0.136%.
`C60F`: “relative binding score” 10.8%.

Sample 8
Target: PABPC1L2, full length, GST fusion (mouse, UniProt A0ABA7IW68)
Method: RNAcompete
Molecule type: RNA
Medium: in vitro
Tested at: 20 nM
Setting: 7-mer, probes averaged, single round
Baseline: mean of 7-mers
Direction: higher = stronger binding
Target sequence (chain): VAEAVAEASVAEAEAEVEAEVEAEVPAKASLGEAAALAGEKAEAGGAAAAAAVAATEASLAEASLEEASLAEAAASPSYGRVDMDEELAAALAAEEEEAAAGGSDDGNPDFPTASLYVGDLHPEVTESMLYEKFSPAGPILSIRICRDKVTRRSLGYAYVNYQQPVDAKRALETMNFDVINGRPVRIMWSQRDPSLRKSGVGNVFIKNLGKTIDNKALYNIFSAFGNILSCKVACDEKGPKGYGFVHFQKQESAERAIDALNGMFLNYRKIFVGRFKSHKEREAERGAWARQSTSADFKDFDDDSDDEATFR
`GGAACCG` gave a 7-mer Z-score of -0.0283.
`AACGCGC` has a 7-mer Z-score of 0.0678.
`GGCCUCC` gave a 7-mer Z-score of -0.374.
`GCAGGUG` gave a 7-mer Z-score of 0.128.
For `AUUUGCU`, the 7-mer Z-score was -0.351.
With `CCAUUAA` the 7-mer Z-score was 0.00798.
The 7-mer Z-score of `UAUCUAU` is reported as -0.177.
`GAAGCAU` has a 7-mer Z-score of -0.0989.
`CUCGCGA` has a 7-mer Z-score of -0.26.
With `GAGCCUG` the 7-mer Z-score was -0.164.
The 7-mer Z-score of `GCUAGGU` is reported as 0.0533.
With `CGCCUGU` the 7-mer Z-score was -0.44.

Excerpt of the above (sample 7):
`R46A`: “relative binding score” 96.9%.
Under “relative binding score”, `Q31W` is recorded as 69%.
For `I133P`, “relative binding score” read 116%.
For `R32Q`, “relative binding score” read 99.7%.
`D75H` — result for “relative binding score”: 101%.
For `H16I`, “relative binding score” read 0.136%.
Under “relative binding score”, `D65Y` is recorded as 85%.
For `I33F`, “relative binding score” read 9.93%.
For `G21T`, “relative binding score” read 101%.
`G108D`: “relative binding score” 45.9%.
`G21F` — result for “relative binding score”: 91.7%.
`C25F` — result for “relative binding score”: 72.6%.
`C60F`: “relative binding score” 10.8%.
